Measured values of several laboratories.
Compare with care: the assays were run in different laboratories. Numbers after ± are the reported error.
T1: RNA aptamer GAA^A junction to UUC^G; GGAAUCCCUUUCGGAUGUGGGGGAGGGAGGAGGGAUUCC

C=CCC(=N)NCCC[C@H](N)C(=O)O — IC50 ratio (Nos1 (Rattus norvegicus, UniProt P29476); cGMP accumulation, inhibitor; rat aorta and hippocampus; relative to: aorta over hippocampus): 3.3
CS(=O)(=O)CCC1NC(=O)C(Cc2ccco2)NC(=O)C(CC2CC2)NC(=O)C=CC(=O)NC(C(N)=O)CCNC1=O (stereo not drawn) — enrichment factor (MAPK14 (Homo sapiens, UniProt Q16539); DNA-templated library selection; one selection round): 1.1
CCCCCC(=O)Nc1ccc(OC)nc1C — specific activity (CES1 (Homo sapiens, UniProt P23141); substrate; 50 µM, pH 8, 37 °C, enzyme purity 25%): 53 pmol/min/µg
NC1CCCc2c1[nH]c1ccc(Cl)cc21 (racemic) — Cd2+ uptake inhibition (Natural resistance-associated macrophage protein 2 (Homo sapiens, UniProt P49281); inhibitor; HEK-293T, transfected; 50 µM): no inhibition
CC(=O)NCCN(CC(=O)NCCN(CC(=O)NCCN(CC(=O)NCCC(N)=O)C(=O)[C@@H](N)CCCNC(=N)N)C(=O)[C@@H](N)CCCNC(=N)N)C(=O)[C@@H](N)Cc1ccccc1 — non-electrostatic ΔG° (HIV-1 TAR RNA; extrapolated to 1 M KCl): -7.43 ± 0.0956 kcal/mol
CC[C@H](C)[C@H](NC(=O)[C@@H](NC(=O)[C@H](Cc1ccccc1)NC(=O)[C@H](CC(=O)O)NC(=O)[C@H](CCCCN)NC(=O)CCNC(=O)c1ccc2c(c1)C(=O)OC21c2ccc(O)cc2Oc2cc(O)ccc21)C(C)C)C(=O)N[C@H](C(=O)N[C@@H](CCCNC(=N)N)C(=O)N[C@@H](CCCNC(=N)N)C(=O)N1CCC[C@H]1C(=O)N[C@@H](CCCCN)C(N)=O)C(C)C — binding affinity loss (human CDK2-cyclin A M210A/I213A; fluorescence polarization; concentration not given; relative to: wild type over mutant): ~5 fold
C=C[C@]12CCC(=O)C=C1CC[C@H]1[C@@H]3CC[C@H](C(C)=O)[C@@]3(C)CC[C@@H]12 — PKA activation (Membrane progesterone receptor epsilon (Paqr9, Mus musculus, UniProt Q6TCG2); pPKA/PKA immunoblot; MDA-MB-231 expressing Paqr9-GFP; 300 nM, 20 min; relative to: control): 170 ± 15.8%
CC[C@H](C)[C@H](NC(=O)[C@H](CCC(=O)O)NC(=O)[C@H](CO)NC(=O)[C@@H](NC(=O)[C@@H](N)CO)C(C)C)C(=O)N[C@@H](CCC(N)=O)C(=O)N[C@@H](CC(C)C)C(=O)N[C@@H](CCSC)C(=O)N[C@@H](Cc1c[nH]cn1)C(=O)N[C@@H](CC(N)=O)C(=O)N[C@@H](CC(C)C)C(=O)NCC(=O)N[C@@H](CCCCN)C(=O)N[C@@H](Cc1c[nH]cn1)C(=O)N[C@@H](CC(C)C)C(=O)N[C@@H](CC(N)=O)C(=O)N[C@@H](CO)C(=O)N[C@@H](CCSC)C(=O)N[C@@H](CCC(=O)O)C(=O)N[C@@H](CCCNC(=N)N)C(=O)N[C@H](C(=O)N[C@@H](CCC(=O)O)C(=O)N[C@@H](Cc1c[nH]c2ccccc12)C(=O)N[C@@H](CC(C)C)C(=O)N[C@@H](CCCNC(=N)N)C(=O)N[C@@H](CCCCN)C(=O)N[C@@H](CCCCN)C(=O)N[C@@H](CC(C)C)C(=O)N[C@@H](CCC(N)=O)C(=O)N[C@@H](CC(=O)O)C(=O)N[C@H](C(=O)N[C@@H](Cc1c[nH]cn1)C(=O)N[C@@H](CC(N)=O)C(=O)N[C@@H](Cc1ccccc1)C(=O)N[C@@H](CCCCNC(=O)c1ccc2c(c1)C1(OC2=O)c2ccc(N(C)C)cc2Oc2cc(N(C)C)ccc21)C(N)=O)C(C)C)C(C)C — kon (PTH1R (Homo sapiens, UniProt Q03431); binding, NanoBRET; pH 5.5, acetate buffer): 980000 ± 400000 M⁻¹ s⁻¹
CC[C@H](C)[C@H](NC(=O)[C@@H](NC(=O)[C@H](C)NC(=O)[C@H](CCC(=O)O)NC(=O)[C@H](CO)NC(=S)Nc1ccc2c(c1)C(=O)OC21c2ccc(O)cc2Oc2cc(O)ccc21)C(C)C)C(=O)N[C@H](C(=O)N[C@H](C(=O)N1CCC[C@H]1C(=O)N[C@@H](Cc1ccccc1)C(=O)N[C@@H](CC(C)C)C(=O)N[C@H](C(=O)N[C@@H](CC(N)=O)C(=O)N[C@@H](CC(C)C)C(=O)O)[C@@H](C)O)[C@@H](C)CC)C(C)C — fold decrease in affinity (Rgg transcriptional regulator (Streptococcus pneumoniae, UniProt A0A0E7KI02); binding, fluorescence polarization; relative to: wild-type peptide): ~8 fold
CN1C=C/C(=C/C=C/c2sc3ccccc3[n+]2CC(=O)NCCOCCOCCOCCNC(=O)CCCC[C@@H]2SC[C@@H]3NC(=O)N[C@@H]32)c2ccccc21 — binding (T1, RNA aptamer GAA^A junction to UUC^G; fluorescence titration): binds weakly
CC(=O)NCCN(CCC(=O)NCCN(CCC(=O)NCCN(CCC(=O)NCCC(N)=O)C(=O)[C@@H](N)Cc1ccccc1)C(=O)[C@@H](N)CCCNC(=N)N)C(=O)[C@@H](N)CCCNC(=N)N — non-electrostatic ΔG° (HIV-1 TAR RNA; extrapolated to 1 M KCl): -8.27 ± 0.0956 kcal/mol
COc1cc(-c2cnc3nc2NCCCNS(=O)(=O)c2cccc(c2)N3)ccc1F — thermal shift ΔTm (FGFR2 (Homo sapiens, UniProt P21802); differential scanning fluorimetry; 10 µM; higher = stronger binding): 4.4 K

Repeated from above:
COc1cc(-c2cnc3nc2NCCCNS(=O)(=O)c2cccc(c2)N3)ccc1F — thermal shift ΔTm (FGFR2 (Homo sapiens, UniProt P21802); differential scanning fluorimetry; 10 µM; higher = stronger binding): 4.4 K
